{"data": "Published values collected from several papers", "note": "A part holds a random share of what one study measured."}
{"data": "Series 1", "cell line": "HEK-293T", "read-out": "pseudovirus infection", "technique": "FDA-approved drug library screen", "organism": "VSV pseudotyped with SARS-CoV-2 spike", "tested at": "10 µM", "time": "16 h", "baseline": "vehicle-treated"}
{"SMILES": "C#C[C@]1(O)CC[C@H]2[C@@H]3CCC4=C(CCC(=O)C4)[C@H]3CC[C@@]21C", "GFP-positive cells": "102%"}
{"SMILES": "c1ccc2c(CC3=NCCN3)cccc2c1", "GFP-positive cells": "84%"}
{"SMILES": "O=P1(NCCCl)OCCCN1CCCl (stereo not shown)", "GFP-positive cells": "119%"}
{"data": "Series 2", "target": "Protein max, full length (MAX, Homo sapiens, UniProt P61244-2, residues 1-151)", "technique": "protein-binding microarray", "form": "double-stranded DNA, one strand shown", "medium": "in vitro", "tested at": "not given", "setting": "k-mer, scored over probes, only values ≥0.25", "direction": "higher = stronger binding"}
{"Strand": "ACACGCTC", "E-score": 0.36}
{"Strand": "ACATGCTG", "E-score": 0.46}
{"Strand": "CGTGGGTC", "E-score": 0.362}
{"Strand": "CACCGTGC", "E-score": 0.318}
{"Strand": "AGCACGTG", "E-score": 0.496}
{"Strand": "GCGTGGCA", "E-score": 0.411}
{"Strand": "CACGCTTC", "E-score": 0.431}
{"Strand": "CGCCCCAC", "E-score": 0.331}
{"data": "Series 3", "target": "Replicase polyprotein 1ab, main protease (rep, Severe acute respiratory syndrome coronavirus 2, UniProt P0DTD1)", "read-out": "enzyme activity", "mode": "inhibitor", "tested at": "20 µM", "setting": "hit confirmation, with DTT"}
{"Compound": "C=C1C(=O)[C@]23[C@H](O)[C@H]1CC[C@@H]2[C@@]12CO[C@]3(O)C[C@@H]1C(C)(C)CC[C@@H]2O", "inhibition [%]": 1.8}
{"Compound": "S=C(S)N1CCCC1", "inhibition [%]": -11.3}
{"Compound": "C[C@@H](CN1CC(=O)NC(=O)C1)N1CC(=O)NC(=O)C1", "inhibition [%]": -22.9}
{"data": "Series 4", "target": "Histone acetyltransferase KAT6A, both winged helices, GST fusion (KAT6A, Homo sapiens, UniProt Q92794, residues 1-181)", "technique": "protein binding microarray", "form": "double-stranded DNA, one strand shown", "medium": "in vitro", "tested at": "not given", "setting": "8-mer, flanks averaged, mean of 2 arrays, mostly near background", "baseline": "not given", "direction": "higher = stronger binding", "Residues (chain)": "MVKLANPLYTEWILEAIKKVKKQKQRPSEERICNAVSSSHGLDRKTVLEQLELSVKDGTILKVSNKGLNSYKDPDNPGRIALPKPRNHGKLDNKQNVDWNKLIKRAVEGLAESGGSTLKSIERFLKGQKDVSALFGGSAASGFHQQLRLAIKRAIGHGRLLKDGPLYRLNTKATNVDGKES"}
{"Strand": "CGCTTTAA", "E-score": 0.0502}
{"Strand": "TTCCGCAA", "E-score": 0.0776}
{"Strand": "AATTGGTA", "E-score": -0.0797}
{"Strand": "TCAGTGCA", "E-score": -0.173}
{"Strand": "CGGCTCTA", "E-score": 0.244}
{"Strand": "CACGGACA", "E-score": 0.25}
{"Strand": "ATTAGGTC", "E-score": -0.103}
{"Strand": "TACTAGCA", "E-score": -0.0172}
{"data": "Series 5", "target": "Replicase polyprotein 1ab, polymerase (rep, Severe acute respiratory syndrome coronavirus 2, UniProt P0DTD1)", "read-out": "enzyme activity", "mode": "inhibitor", "tested at": "20 µM"}
{"Structure (SMILES)": "CCCOC(C(=O)OC1CCN(C)CC1)(c1ccccc1)c1ccccc1", "inhibition [%]": -0.15}
{"Structure (SMILES)": "CC(C)(C)c1ccc2cc(C#N)c(C#N)cc2c1", "inhibition [%]": 0.12}
{"Structure (SMILES)": "CC(C)(Sc1cc(C(C)(C)C)c(O)c(C(C)(C)C)c1)Sc1cc(C(C)(C)C)c(O)c(C(C)(C)C)c1", "inhibition [%]": 17.8}
{"Structure (SMILES)": "CCOC(=O)Nc1cc(-c2ccc(C)c(NS(C)(=O)=O)c2)nn2c(C)nnc12", "inhibition [%]": 7.95}
{"Structure (SMILES)": "Cc1ccc(-c2nn(C(C)(C)CNC(=O)c3ncccc3C)c3ncnc(N)c23)cc1", "inhibition [%]": -1.15}
{"Structure (SMILES)": "CCCCCCOC(=O)NC(=N)c1ccc(NCc2nc3cc(C(=O)N(CCC(=O)OCC)c4ccccn4)ccc3n2C)cc1", "inhibition [%]": -2.74}
{"Structure (SMILES)": "O=c1cc[nH]c2cc(Cl)ccc12", "inhibition [%]": 0.44}
{"Structure (SMILES)": "Cc1cc2nc3c(=O)[nH]c(=O)nc-3n(C[C@H](O)[C@H](O)[C@H](O)CO)c2cc1C", "inhibition [%]": 15.7}
{"Structure (SMILES)": "CN1CCN(c2cccc(Nc3nc4c(-c5ccc(S(C)(=O)=O)cc5)cccn4n3)c2)CC1", "inhibition [%]": 5.47}
{"Structure (SMILES)": "C[C@]12CC[C@H]3[C@@H](CC[C@@]45O[C@@H]4C(O)=C(C#N)C[C@]35C)[C@@H]1CC[C@@H]2O", "inhibition [%]": -0.11}
{"Structure (SMILES)": "COc1ccccc1N1CCN(CCCCN2C(=O)c3ccccc3C2=O)CC1", "inhibition [%]": 2.23}
{"Structure (SMILES)": "C/C(=C\\CNc1ncnc2nc[nH]c12)CO", "inhibition [%]": 3.55}
{"Structure (SMILES)": "CSCC[C@H](NC(=O)[C@H](Cc1ccccc1)NC(=O)CNC(=O)CNC(=O)[C@@H](N)Cc1ccc(O)cc1)C(=O)O", "inhibition [%]": -2.16}
{"Structure (SMILES)": "FC(F)(F)c1ccc(CNc2ccc(Cc3c[nH]c4ncccc34)cn2)cc1", "inhibition [%]": -2.4}
{"Structure (SMILES)": "CCCCC1CCC(c2nc(-c3ccncc3)no2)CC1 (stereo not shown)", "inhibition [%]": -2.18}
{"Structure (SMILES)": "O=C1C=Cc2cc(Br)ccc2C1=O", "inhibition [%]": 4.46}
{"Structure (SMILES)": "c1ccc(CCCN2CCN(CCOC(c3ccccc3)c3ccccc3)CC2)cc1", "inhibition [%]": 3.54}
{"Structure (SMILES)": "O=C1NC(=O)/C(=C/c2ccc(-c3ccc(F)cc3O)o2)S1", "inhibition [%]": 13.9}
{"Structure (SMILES)": "O=C(NCC(=O)N1CCCC1)Nc1ccc2cnccc2c1", "inhibition [%]": -0.64}
{"Structure (SMILES)": "COc1cc(/C=C/c2ccc(O)cc2)cc(OC)c1", "inhibition [%]": 2.58}
{"Structure (SMILES)": "OC1(c2ccc(Cl)c(C(F)(F)F)c2)CCN(CCCC(c2ccc(F)cc2)c2ccc(F)cc2)CC1", "inhibition [%]": -1.36}
{"Structure (SMILES)": "NCCc1ccccn1", "inhibition [%]": -0.62}
{"Structure (SMILES)": "COc1ccc(C2(CNC(=O)c3ccc(NC(=O)c4ccco4)cc3)CCOCC2)cc1", "inhibition [%]": 0.13}
{"Structure (SMILES)": "Nc1nc(Nc2ccc3c(c2)CC[C@@H](N2CCCC2)CC3)nn1-c1cc2c(nn1)-c1ccccc1CCC2", "inhibition [%]": 2.24}
{"Structure (SMILES)": "N#Cc1c(-c2ccccc2)cc(-c2cc(Br)ccc2O)[nH]c1=O", "inhibition [%]": 21.8}
{"data": "Series 6", "target": "Interferon regulatory factor 5, full length, phosphomimetic (IRF5, Homo sapiens, UniProt Q13568-2, residues 1-514, K96S/S451D/S453D/S456D/S462D)", "technique": "protein-binding microarray", "form": "double-stranded DNA, one strand shown", "medium": "in vitro", "tested at": "250 nM", "setting": "60-bp whole probe", "with": "salmon DNA 0.4 mg/ml", "baseline": "random background probes", "direction": "higher = stronger binding", "constant ends, left off below": "GCCTAGCAC … GTGCTAGGTCTTGATTCGCTTGACGCTGCTG"}
{"Strand": "GACTAACTGAGTATCGAGAC", "log fluorescence [z-score]": 1.93}
{"Strand": "GACGGTATCGGTCTCGGGAG", "log fluorescence [z-score]": 5.1}
{"Strand": "TTAGGACTGCGTCTCCTTTA", "log fluorescence [z-score]": -0.48}
{"Strand": "CTGCGGTGAGTGCGTTATCG", "log fluorescence [z-score]": 0.448}
{"Strand": "GACGGTTTCCTTTCCCTCAC", "log fluorescence [z-score]": 1.78}
{"Strand": "GACGATATCAGTTTCGATAC", "log fluorescence [z-score]": 9.76}
{"Strand": "GACGGACGGCTTATCCTGAC", "log fluorescence [z-score]": -0.676}
{"Strand": "TCATTTTTTTTTCTGATACT", "log fluorescence [z-score]": 1.41}
